Measurements from different studies.
Each numbered part is a random draw from the data of one study; scales do not carry over between parts.

Study 1
Target: Histone acetyltransferase KAT6A, both winged helices, GST fusion (KAT6A, Homo sapiens, UniProt Q92794, residues 1-181)
Technique: protein binding microarray
Molecule type: double-stranded DNA, one strand shown
Matrix: in vitro
Concentration: not given
Notes: 8-mer, flanks averaged, mean of 2 arrays, mostly near background
Reference: not given
Direction: higher = stronger binding
Residues (chain): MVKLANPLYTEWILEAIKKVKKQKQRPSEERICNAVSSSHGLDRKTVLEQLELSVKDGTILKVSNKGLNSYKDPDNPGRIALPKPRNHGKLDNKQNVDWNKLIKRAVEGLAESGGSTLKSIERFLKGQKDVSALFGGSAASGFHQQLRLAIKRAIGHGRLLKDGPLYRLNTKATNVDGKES
`AGACATGG` has an E-score of -0.0346.
`TACCCTGA` gave an E-score of -0.0752.
`CGATACCG` has an E-score of 0.189.
With `GGCCTTAC` the E-score was 0.0209.
`GTAGACGA` has an E-score of -0.0266.
For `ATGAGGAA`, the E-score was -0.252.
The E-score of `GACCTTCA` is reported as -0.0515.
`AAGGCCCC` gave an E-score of 0.0979.
The E-score of `TGGGTTAA` is reported as -0.223.
The E-score of `TCCGGGCA` is reported as 0.036.
With `CTTTCCCC` the E-score was -0.124.
The E-score of `CATGAATA` is reported as -0.0355.
The E-score of `AGTACCAT` is reported as -0.0809.
With `CAGCCACG` the E-score was 0.0243.
With `CTTGGTAC` the E-score was -0.0494.
For `ACAGGATC`, the E-score was -0.209.

Study 2
Target: PABPC1L2, full length, GST fusion (mouse, UniProt A0ABA7IW68)
Technique: RNAcompete
Molecule type: RNA
Matrix: in vitro
Concentration: 20 nM
Notes: 7-mer, probes averaged, single round
Reference: mean of 7-mers
Direction: higher = stronger binding
Target sequence (chain): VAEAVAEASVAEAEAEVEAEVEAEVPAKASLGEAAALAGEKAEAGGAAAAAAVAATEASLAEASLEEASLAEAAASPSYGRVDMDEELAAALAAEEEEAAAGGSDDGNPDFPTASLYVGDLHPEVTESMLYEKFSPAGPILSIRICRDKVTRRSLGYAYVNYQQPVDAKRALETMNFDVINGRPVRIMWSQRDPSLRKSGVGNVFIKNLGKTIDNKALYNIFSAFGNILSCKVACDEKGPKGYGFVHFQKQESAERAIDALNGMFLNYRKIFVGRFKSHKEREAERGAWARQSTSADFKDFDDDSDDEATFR
`CCGGGAG` gave a 7-mer Z-score of -0.195.
The 7-mer Z-score of `CAAAGUC` is reported as 0.135.
With `CCCUGAC` the 7-mer Z-score was -0.266.
The 7-mer Z-score of `AAAGGCU` is reported as 0.742.
`GUGGUGC` gave a 7-mer Z-score of 0.00254.
For `CCGUGUU`, the 7-mer Z-score was -0.46.
The 7-mer Z-score of `CUACAGU` is reported as -0.175.
For `GGUGGAG`, the 7-mer Z-score was 0.0678.
For `UGUCGUU`, the 7-mer Z-score was -0.407.
For `CCCCCUU`, the 7-mer Z-score was -0.525.
`UGUGGGA` gave a 7-mer Z-score of 0.167.
For `UAUAACA`, the 7-mer Z-score was 0.0406.
The 7-mer Z-score of `AACAAGU` is reported as 0.717.
The 7-mer Z-score of `CACGUAC` is reported as -0.191.
With `GUCCUCC` the 7-mer Z-score was -0.335.

Study 3
Target: Sal-like protein 4, full length isoform A (SALL4, Homo sapiens, UniProt Q9UJQ4, residues 1-1053)
Sequence of UniProt Q9UJQ4 (whole entry, looked up): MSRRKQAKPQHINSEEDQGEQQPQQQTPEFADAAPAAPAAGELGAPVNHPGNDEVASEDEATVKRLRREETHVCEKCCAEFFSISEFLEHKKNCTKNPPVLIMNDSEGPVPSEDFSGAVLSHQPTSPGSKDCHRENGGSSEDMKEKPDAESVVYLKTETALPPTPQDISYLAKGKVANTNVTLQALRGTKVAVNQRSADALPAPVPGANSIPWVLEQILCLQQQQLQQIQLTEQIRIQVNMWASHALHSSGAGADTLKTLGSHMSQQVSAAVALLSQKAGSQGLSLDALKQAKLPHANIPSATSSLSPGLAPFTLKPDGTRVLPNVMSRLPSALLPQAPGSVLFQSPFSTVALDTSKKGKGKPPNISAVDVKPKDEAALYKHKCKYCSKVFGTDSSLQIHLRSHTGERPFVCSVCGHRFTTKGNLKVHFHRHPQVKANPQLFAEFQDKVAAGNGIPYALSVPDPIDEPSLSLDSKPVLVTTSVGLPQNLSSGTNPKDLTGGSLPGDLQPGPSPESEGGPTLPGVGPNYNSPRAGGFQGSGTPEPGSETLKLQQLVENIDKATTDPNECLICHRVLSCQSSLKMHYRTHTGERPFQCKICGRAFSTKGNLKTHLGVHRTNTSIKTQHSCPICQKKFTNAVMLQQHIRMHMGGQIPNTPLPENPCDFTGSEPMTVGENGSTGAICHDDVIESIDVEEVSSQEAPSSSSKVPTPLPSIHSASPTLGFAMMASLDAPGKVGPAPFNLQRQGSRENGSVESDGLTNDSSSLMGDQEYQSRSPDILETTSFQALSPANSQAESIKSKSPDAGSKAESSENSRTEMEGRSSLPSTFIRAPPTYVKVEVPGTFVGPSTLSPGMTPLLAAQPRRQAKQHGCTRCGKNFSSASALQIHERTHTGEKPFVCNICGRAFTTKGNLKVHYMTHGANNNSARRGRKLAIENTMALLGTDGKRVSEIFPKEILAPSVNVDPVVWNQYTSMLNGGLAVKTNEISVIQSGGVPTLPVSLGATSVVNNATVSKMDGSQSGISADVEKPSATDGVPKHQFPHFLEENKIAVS
Technique: universal PBM
Molecule type: double-stranded DNA, one strand shown
Matrix: in vitro
Concentration: 600 nM
Notes: 8-mer, flanks averaged, mean of replicates
Direction: higher = stronger binding
For `AGTCAAAT`, the E-score was 0.28.
`AAATGTTG` gave an E-score of 0.163.
With `AAGCGCGC` the E-score was -0.191.
The E-score of `GATTATAC` is reported as 0.19.
The E-score of `AAAACTAG` is reported as 0.149.
`CGGGTGAC` has an E-score of -0.359.
`CAGAGGTA` has an E-score of 0.039.
With `ATTCGAGA` the E-score was 0.129.
The E-score of `AAGGATTG` is reported as 0.127.
`AAGAGATG` gave an E-score of 0.00592.
`CGAGCTCA` gave an E-score of -0.159.

Study 4
Target: Interferon regulatory factor 5, full length, phosphomimetic (IRF5, Homo sapiens, UniProt Q13568-2, residues 1-514, K96S/S451D/S453D/S456D/S462D)
Technique: protein-binding microarray
Molecule type: double-stranded DNA, one strand shown
Matrix: in vitro
Concentration: 250 nM
Notes: 60-bp whole probe
Together with: salmon DNA 0.4 mg/ml
Reference: random background probes
Direction: higher = stronger binding
Shared flanks, not repeated: GCCTAGCAC … GTCTTGATTCGCTTGACGCTGCTG
`TGCTTTTTAGAAATTTTTTTTGTGCTA` gave a log fluorescence of 0.976 z-score.
The log fluorescence of `GACGATCTGAGACTGGAGACGTGCTAG` is reported as -0.312 z-score.
For `TCATTTTTTTTTTCATCACTGTGCTAG`, the log fluorescence was 1.61 z-score.
`CATTATATTTTAATCACATAGTGCTAG` gave a log fluorescence of 0.725 z-score.
The log fluorescence of `GACGGTTTCGGTTCGGGGACGTGCTAG` is reported as 9.33 z-score.
`GACGGTTTCGGGTATCGGAACGTGCTA` has a log fluorescence of 8.81 z-score.
With `GACGGGATCGGACTGGGGACGTGCTAG` the log fluorescence was -0.372 z-score.
For `TCATGCTTTCCTTTATGACTGTGCTAG`, the log fluorescence was 0.896 z-score.
`GACGGTTTCTACTTTCGGGACGTGCTA` gave a log fluorescence of 7.58 z-score.
For `TCAGTTTCCAGTATATTACTGTGCTAG`, the log fluorescence was 1.34 z-score.
The log fluorescence of `GGCGGTATCGGTATCGGGACGTGCTAG` is reported as 6.45 z-score.
With `TTAGATTCCAGCTTCGATTAGTGCTAG` the log fluorescence was 1.17 z-score.
For `TTAGGTCTCCTTTGCCTTTAGTGCTAG`, the log fluorescence was -0.26 z-score.
For `AAGCAAAAATGATTGGTTGAGTGCTAG`, the log fluorescence was 0.142 z-score.
For `GCCGGTATCCTACTGCTGACGTGCTAG`, the log fluorescence was -0.218 z-score.
The log fluorescence of `GACGGTATCGACACTGGAGACGTGCTA` is reported as 1.64 z-score.
`TCACTTTACACACATCATACTGTGCTA` has a log fluorescence of 1.12 z-score.

For quick reference, copied from above (study 3):
With `ATTCGAGA` the E-score was 0.129.
`CGGGTGAC` has an E-score of -0.359.
`CAGAGGTA` has an E-score of 0.039.
`AAGAGATG` gave an E-score of 0.00592.
